# Results from different studies.
# Each numbered part is a random draw from the data of one study; scales do not carry over between parts.

# Sample 1 — method: RNA Bind-n-Seq; form: RNA; sample: in vitro; concentration: not given; setting: RNA with constant flanks, ends assumed; baseline: input RNA pool; reading: higher = stronger binding
# Target: RING finger protein unkempt homolog, zinc fingers 1-6, GST-SBP tag (UNK, Homo sapiens, UniProt Q9C0B0, residues 30-357)
# Target sequence (chain): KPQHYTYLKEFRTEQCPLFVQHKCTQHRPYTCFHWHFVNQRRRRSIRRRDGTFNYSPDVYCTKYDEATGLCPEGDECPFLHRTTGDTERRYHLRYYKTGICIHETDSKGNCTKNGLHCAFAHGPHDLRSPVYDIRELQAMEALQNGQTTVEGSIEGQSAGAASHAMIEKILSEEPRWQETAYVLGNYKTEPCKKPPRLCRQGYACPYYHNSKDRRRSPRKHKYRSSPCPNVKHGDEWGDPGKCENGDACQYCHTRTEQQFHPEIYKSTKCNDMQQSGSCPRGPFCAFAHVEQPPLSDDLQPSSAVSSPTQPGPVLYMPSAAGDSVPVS
Strand,bound/input enrichment [ratio]
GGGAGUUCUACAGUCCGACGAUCAGAGUGAAAAUUCUUCGAGAUUAUGCUGGCCUUAUACUUUUCCUAGAAGAGGAUCACUACUCCGCCCCAGACUUUUACCAUGUCUUCAAAAAGAUGUGGAAACUGAAGCAGCAAGAGUGCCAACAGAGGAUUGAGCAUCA,0.161
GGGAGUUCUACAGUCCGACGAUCGCCAUCCAGCACUGCCAUUCCCGUGGAGUUGUCCAUCGUGACAUCAAGGAUGAGAACAUCCUGACCGACCUACGCCGUGGCUGUGCCAAACUCAUUGAUUUUGGUUCUGGUGCCCUGCUUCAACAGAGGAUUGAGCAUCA,0.0999
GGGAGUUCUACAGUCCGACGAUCAUGAUGAAAGGCGAGUUUUAUGUCAUUGAAUAUGCUGCUUGUGAUGCCACUUACAAUGAAACCGUCACAUUUGAACGACUUCGGCCUGUCAAUCAAAAUAAAACUGUCAAAAAAAAUACCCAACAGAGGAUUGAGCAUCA,0.269
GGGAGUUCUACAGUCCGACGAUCCCAGGCUGGAGUCAUUUACAAGUUUCUCCACGUAGAUUGUAGUCAGGUUUCUCCCAGACCUCCGGCGUUUGUAUUUUUUUUUUUAAUUUUAAUUUCACUGUUACCCUUGACUAUUGUCCUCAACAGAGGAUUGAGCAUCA,47.8
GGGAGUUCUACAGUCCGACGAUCUUCCCUGAAUUUCUGACAAUGAUGGCAAGAAAAAUGAAAGACACAGACAGUGAAGAAGAAAUCCGAGAAGCAUUCCGUGUGUUUGAUAAGGAUGGCAAUGGCUAUAUUAGUGCUGCAGAACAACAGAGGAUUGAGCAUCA,0.24
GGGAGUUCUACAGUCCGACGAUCUCCCAGAGAUAAGUUCACCAAGAUGUCCAGUGACAGGCAAAGGUCGGAUGAUGAGAGCCCCCGCACCAGCAGUGGCAGUUCAGAUGCAGAUCAGCGAGACCCUGCCGCUCCAGAGCCCGACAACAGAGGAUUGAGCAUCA,0.12
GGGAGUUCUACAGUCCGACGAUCUCAGGAACCCAGACAAACAUGAAUGUAAAUGAAGUCAUUAGCAACAGAGCAAUUGAAAUGUCCGGAGGUGAACUUGGCAGCAAGAAGCCUGUGCACCCCAAUGAUCAUGUUAACAAAAGCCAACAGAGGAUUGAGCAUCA,0.23
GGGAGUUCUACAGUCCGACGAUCGCUGUGCUGGGUUAACAGCUUCCUUCCCUUUCUGUGUAGCAGUCUUGAAAUGUUCUGUUUAAAUCAGCCGGCUUAAUGUGUUCUGGGUAUUUAUCUCCUUGUAUUUUAAAUAUAUGUAGUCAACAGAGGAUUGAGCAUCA,1.68

# Sample 2 — method: protein-binding microarray; form: double-stranded DNA, one strand shown; sample: in vitro; concentration: 250 nM; setting: 60-bp whole probe; with: salmon DNA 0.4 mg/ml; baseline: random background probes; reading: higher = stronger binding; all sequences stand within: GCCTAGCAC … GTCTTGATTCGCTTGACGCTGCTG
# Target: Interferon regulatory factor 7, full length, phosphomimetic (IRF7, Homo sapiens, UniProt Q92985, residues 1-503, S101K/S471D/S472D/S475D/S476D/S477D/S483D/S484D/S487D)
# Target sequence (chain): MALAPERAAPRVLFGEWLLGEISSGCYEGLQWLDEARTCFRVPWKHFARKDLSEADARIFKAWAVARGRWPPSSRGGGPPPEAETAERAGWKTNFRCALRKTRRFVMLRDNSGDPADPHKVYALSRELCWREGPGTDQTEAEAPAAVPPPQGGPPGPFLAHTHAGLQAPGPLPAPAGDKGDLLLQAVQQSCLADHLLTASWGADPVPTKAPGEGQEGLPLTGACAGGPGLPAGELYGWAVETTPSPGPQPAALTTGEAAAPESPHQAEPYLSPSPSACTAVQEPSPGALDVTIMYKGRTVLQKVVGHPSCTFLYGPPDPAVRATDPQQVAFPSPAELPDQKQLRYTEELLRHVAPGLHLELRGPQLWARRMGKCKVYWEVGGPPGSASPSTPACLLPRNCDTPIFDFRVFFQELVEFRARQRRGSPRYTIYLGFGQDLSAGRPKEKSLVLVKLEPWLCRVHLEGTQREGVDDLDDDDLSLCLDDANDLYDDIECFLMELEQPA
Strand,log fluorescence [z-score]
GACGGTAACGGGACTGGGGACGTGCTA,-0.715
GACGGTGTCCTTATCCTGACGTGCTAG,-0.382
GACGGTCTCGGGACTGGGGACGTGCTA,0.0644
GAGGATCTCAGACTGGAGACGTGCTAG,-0.693
TCTCTGCTACCCTCTGAAAGTGTGCTA,-0.146
TTAGAACTGACTATCGATTAGTGCTAG,0.0622
GACGGTTTCGACCTTCGGGACGTGCTA,5.46
TTAGATATCGGGTTCCGATTAGTGCTA,1.05
GACGGTTTCGGTTCCAGGACGTGCTAG,12.4
TTAGGTATTGGGTATCGGTTAGTGCTA,0.733
TTAGAACTCGGGTTTCGATTAGTGCTA,6.95
GAAGGTCTCCTACTGCTGACGTGCTAG,-0.332
ATAGATCTCAGACTGGATTAGTGCTAG,-0.251
TTACGTTTCGGGACTGGGTTAGTGCTA,1.65
GACAGTCTCGGTCTCGGGACGTGCTAG,0.996
CAAGTTACCCACCTCAGGTAGTGCTAG,0.811
TCATTCATGAAGTTTTAAACTGTGCTA,0.486
TCAGATATCAGACTGGATTAGTGCTAG,0.183
TCAAAAATGGAAACTCGTACTGTGCTA,0.848
GACGATATCAGTCTCCAGACGTGCTAG,-0.179
GCCGGACTGCTACTGCTGACGTGCTAG,-0.814
GACGGTTACGGGTTTCGGGACGTGCTA,2.66
GAGGATTTCAGTTTCGAGACGTGCTAG,4.63
AAGTAAAATGCAAAGAGGAAGTGCTAG,-0.197

# Sample 3 — method: RNA Bind-n-Seq; form: RNA; sample: in vitro; concentration: 365 nM; baseline: no-protein control; reading: higher = stronger binding
# Target: RNA binding protein fox-1 homolog 2, RRM domain, GST-SBP tag (RBFOX2, Homo sapiens, UniProt O43251-10, residues 100-194)
# Setting: natural RNA segment, single round, ends assumed
# Target sequence (chain): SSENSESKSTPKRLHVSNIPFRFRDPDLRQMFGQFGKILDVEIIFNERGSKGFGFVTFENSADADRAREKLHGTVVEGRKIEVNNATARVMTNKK
Strand,RBNS enrichment (R)
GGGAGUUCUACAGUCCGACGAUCGCCAGGCAGAGCUGGUGUGACUUGAGGUGGCGCCAGCCUCUCAGGCAUGGUGGCUGGGUUGGUGAUAUACAGUGCAGCAGAGCUGCCCUCAGACGUGGGACUGCAGAGUCUGGAAUUCUCGGGUGCCAA,1.38
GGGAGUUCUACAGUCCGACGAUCGCAACAACGAUCCUAUUUGUACCCUAGACCCAGAGACUCAGGCCUCCAGCUCCUGGGAUCCAGGAGUCCAUCCCCAGUCCCCUGGGAUCCUAGUGUCCCUCCCUCCUGCAUGGAAUUCUCGGGUGCCAA,1.16
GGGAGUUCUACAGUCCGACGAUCUCUCUAAUUCAUAUGAAUUUGCUGUUUGCUCUAAUUUCUUUGGGCUCUUCUAAUUUGAGUGGAGUACAAUUUUGUUGUGAAACAGUCCAGUGAAACUGUGCAGGGAAAUGUGGAAUUCUCGGGUGCCAA,0.365
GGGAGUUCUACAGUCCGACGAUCUAAUUGGAGGAAAUGAAUGCUGAUUGUAACGGAGUUAAUUUUAUUGAUAAUAAAUUAUACACUAUGAAACCGCCAUUGGGCUACUGUAGAUUUGUAUCCUUGAUGAAUCUUGGAAUUCUCGGGUGCCAA,10.3
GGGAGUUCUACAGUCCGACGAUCUGGCAUUUUUAAAAAAGUGCAAUCAAUAAAGCAGAGUUCUGUCAAGAAUGAGUAAGUUAACAGCCAGAGACAGACACUGUGCAGGCAUUGCAAAUAGAUGGAAUUACAGCUGGAAUUCUCGGGUGCCAA,0.691
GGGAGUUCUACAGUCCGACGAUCAUGAAAAUCCCUAAUUAUAUAGUUUUAUAUAAUGUGUAUACAGAGUAGGAUUGUUGAUGAAAUUGAGCGGUUGGAACACCCUCAUGGAACACUGGCAACAUGGAAUGUAGUGGAAUUCUCGGGUGCCAA,0.78
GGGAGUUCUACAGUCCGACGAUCUCAGGCCGGGCGGCCAGCCUUGCACUACUGACCACGAUGAUGCCAGGCUGGGCGGCCAGCCUUGCACUAUGUCCCAGCCCCACUACUGAACACUACUGACUUAGACUGCUUGGAAUUCUCGGGUGCCAA,0.257
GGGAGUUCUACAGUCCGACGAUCAUCUUUCUCCCCGAAACAAUGUUGUUUUGUUUUGUUUUUUUUCCUUAAUUUGCACGAAAACAAAAAUUCCAUAUCAAUGUGCCUUGCCCUGGAUAGCGAUUAUUUGUGGAUGGAAUUCUCGGGUGCCAA,10.3
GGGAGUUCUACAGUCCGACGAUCUUUAGCCGUGUUUUGACUGUCUAGUAUUUCUAAAUAUUUCUCUGUAUCCUGGAUGGUCUCAUAACGUUGGCCAUAAUAGGUACAUAAUCAGAAGAUCACUUAGACAACAUUGGAAUUCUCGGGUGCCAA,0.319

# Sample 4 — method: competition protein-binding microarray; form: double-stranded DNA, one strand shown; sample: in vitro; concentration: 2 µM; with: Pho4 competitor, 0.05 µM; reading: higher = stronger binding
# Target: Centromere-binding protein 1, full length, His-tagged (CBF1, Saccharomyces cerevisiae, UniProt P17106, residues 1-351)
# Chain of UniProt P17106 (whole entry, looked up): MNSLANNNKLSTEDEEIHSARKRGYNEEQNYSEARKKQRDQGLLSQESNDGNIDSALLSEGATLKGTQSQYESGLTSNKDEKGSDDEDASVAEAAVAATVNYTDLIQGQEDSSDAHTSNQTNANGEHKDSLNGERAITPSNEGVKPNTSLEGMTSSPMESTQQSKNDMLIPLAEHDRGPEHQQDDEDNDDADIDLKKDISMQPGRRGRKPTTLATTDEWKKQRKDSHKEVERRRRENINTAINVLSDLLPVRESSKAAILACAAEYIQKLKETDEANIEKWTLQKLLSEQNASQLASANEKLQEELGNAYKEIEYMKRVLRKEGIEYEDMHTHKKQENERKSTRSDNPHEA
# Setting: whole 60-bp probe, lowest competitor level
Strand,fluorescence intensity [a.u.]
AGTCTCATCTTCTTTCCCGTGCCGACGGGTTTAGTAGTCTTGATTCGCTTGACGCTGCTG,68.2
TGCGCAACAACTTCCCACGTGTTTTTATGTCTAGAAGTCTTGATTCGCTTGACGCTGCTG,1280
CTGTGAGACCAGTTAAAGACCTCTCTCAAGAAAAATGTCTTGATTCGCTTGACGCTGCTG,66.8
TACTAGTACGTAAACAACGTGGTGAAGTAGAAAAAAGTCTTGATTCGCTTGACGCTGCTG,108
CTAACGAAGGTTTTTCACGTGGGATACAAGCCAAGTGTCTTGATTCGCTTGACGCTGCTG,606
TATATAGTAGATCAACTCGTGCTTTGCTGGCTATAAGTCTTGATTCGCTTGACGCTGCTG,107
GTCAATACTCTAATAGCTGTGATGAAAATCATAATAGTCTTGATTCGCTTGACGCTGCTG,88.6
TGCACGGAGTCTTAAAACACTCCGATTTGGATACCTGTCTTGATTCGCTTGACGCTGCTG,86
TGCGCAACAACTTGGACTGTGGGTGTATGTCTAGAAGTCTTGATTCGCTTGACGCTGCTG,59.3
CGGGGTTAAGTTTGAGGCGTGGGTGGCTTGCAGCAGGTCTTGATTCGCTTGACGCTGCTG,82.6
CTTTCCCGATCTTGCTGGGTGGGTGTAGCACATTTGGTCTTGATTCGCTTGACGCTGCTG,75.5
TGATCCGTTCGCAATCACGTTGTTACTATTCGAGGAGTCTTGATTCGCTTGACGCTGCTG,632
CGCTATTTTCGCCGTCACATGTCAATAAAAGCAGATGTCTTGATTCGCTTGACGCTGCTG,1970
CGTCCTAGTGATTTTCACGTGGGCTCCATGAGGAAGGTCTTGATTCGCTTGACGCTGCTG,876
CTTTCCCGATCTTGTCACCTAACTTTAGCACATTTGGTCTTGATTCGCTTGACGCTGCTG,82.7
GTCTTGTCTCATTGTCACAGCACTTTCCCCACTTCAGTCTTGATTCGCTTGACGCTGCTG,91
GGCCAAACAACCAGGGTCGTGCCAGTATTTGGCGCCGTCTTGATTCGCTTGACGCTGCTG,55.2
GATTTGTTGTGTAATAGCGTGATGGGCACTTGAATGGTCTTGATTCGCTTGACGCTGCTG,152
GCCCCAGGTTAGGACCACGTGGGTAAGAAGATTTCCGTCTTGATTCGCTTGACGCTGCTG,933
TTTATTGATTAACAAATAATCGAGACACACTATAGAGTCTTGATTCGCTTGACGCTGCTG,88.5
TACTTTTTCCGGTGGCCCGTGATGGGTTTGTAACAGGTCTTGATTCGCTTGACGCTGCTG,143
GGGCTTACTTTATCGCACGTGATGGTTCCCACAGTAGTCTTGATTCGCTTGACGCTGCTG,3540
GAGGCTTGGCAGTTCCACGTGGAAGACCTGACGGAGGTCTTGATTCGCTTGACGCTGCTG,435
CCGGGGACGACGCTCCTCGTGCTTTCTTCCCATCTAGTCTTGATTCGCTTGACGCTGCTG,74.5
CATACCCAACCTTTTCACGTGACTTAAGATATTTGTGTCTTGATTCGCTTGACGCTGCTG,6990

# For quick reference, copied from above (sample 2):
Strand,log fluorescence [z-score]
GACGGTGTCCTTATCCTGACGTGCTAG,-0.382
GACGGTCTCGGGACTGGGGACGTGCTA,0.0644
GAGGATCTCAGACTGGAGACGTGCTAG,-0.693
TCTCTGCTACCCTCTGAAAGTGTGCTA,-0.146
TTAGAACTGACTATCGATTAGTGCTAG,0.0622
